Assay results of several laboratories.
Compare with care: the assays were run in different laboratories. Numbers after ± are the reported error.
Cell line: K562

| Structure (SMILES) | assay | setting | measurement | value |
| --- | --- | --- | --- | --- |
| CCCCn1cc(C(=O)O)c(=O)c2cc(F)c3c(nnn3-c3cccc(OC)c3)c21 | cell growth or viability, SRB |  | IC50 | 70.4 µM |
| CC(C)=CCc1cc(-c2coc3cc(O)c(CC=C(C)C)c(O)c3c2=O)ccc1O | cell growth or viability, MTT | 6.25 µg/mL | viability | 98.5% |
| Cc1[nH][n+]([Pd-2]([Cl])([Cl])[n+]2[nH]c(C)c(CSCc3ccccc3)c2C)c(C)c1CSCc1ccccc1 | cytotoxicity, 7-AAD flow cytometry | 24 h | IC50 | 0.52 ± 0.04 µM |
| CCCCn1cc(C(=O)O)c(=O)c2cc(F)c(Nc3ccccc3OC)c([N+](=O)[O-])c21 | cell growth, SRB | 72 h | IC50 | 15.3 ± 2.63 µg/mL |
| COc1ccc(-c2coc3c(CC=C(C)C)c(O)c(CC=C(C)C)c(O)c3c2=O)cc1O | cell growth or viability, MTT | 6.25 µg/mL | viability | 88% |
| CCCCn1cc(C(=O)O)c(=O)c2cc(F)c(Nc3cc(OC)c(OC)c(OC)c3)c([N+](=O)[O-])c21 | cell growth or viability, SRB |  | IC50 | 54.9 µM |
| C[C@H](CCC=O)[C@@H]1CC[C@]2(C)C3=C(CC[C@@]12C)[C@@]1(C)CC[C@H](O)C(C)(C)[C@@H]1CC3 | cell growth or viability, SRB | 50 µM | inhibition | 100% |
| CCCCn1cc(C(=O)O)c(=O)c2cc(F)c3c(nnn3-c3ccccc3OC)c21 | cell growth, SRB | 72 h | IC50 | 114 ± 10.2 µg/mL |
| CC(=O)O[C@H]1CC[C@]2(C)C3=C(CC[C@H]2C1(C)C)[C@@]1(C)CC[C@@H]([C@H](C)CCC=C(C)C)[C@]1(C)CC3 | cell growth or viability, SRB | 50 µM | inhibition | 39.8% |
| CC(C)=CCc1c2c(c(O)c3c(=O)c(-c4ccc(O)cc4)coc13)CC(C(C)(C)O)O2 (stereo not drawn) | cell growth or viability, MTT | 100 µg/mL | viability | 10.6% |
| CC(C)=CCC[C@@H](C)[C@@H]1CC[C@]2(C)C3=C(CC[C@@]12C)[C@@]1(C)CC[C@H](OC(=O)c2ccccc2)C(C)(C)[C@@H]1CC3 | cell growth or viability, SRB | 50 µM | inhibition | 33.1% |
| Cc1[nH][n+]([Pt-2]([Cl])([n+]2[nH]c(C)c(CSCc3ccccc3)c2C)[n+]2[nH]c(C)c(CSCc3ccccc3)c2C)c(C)c1CSCc1ccccc1.Cl | cytotoxicity, 7-AAD flow cytometry | 24 h | IC50 | 0.3 ± 0.03 µM |

For quick reference, copied from above:
| Structure (SMILES) | assay | setting | measurement | value |
| --- | --- | --- | --- | --- |
| CC(C)=CCC[C@@H](C)[C@@H]1CC[C@]2(C)C3=C(CC[C@@]12C)[C@@]1(C)CC[C@H](OC(=O)c2ccccc2)C(C)(C)[C@@H]1CC3 | cell growth or viability, SRB | 50 µM | inhibition | 33.1% |
| CC(=O)O[C@H]1CC[C@]2(C)C3=C(CC[C@H]2C1(C)C)[C@@]1(C)CC[C@@H]([C@H](C)CCC=C(C)C)[C@]1(C)CC3 | cell growth or viability, SRB | 50 µM | inhibition | 39.8% |
